# Results from different studies.
# Numbered parts are unrelated; each lists some results of a single study. Changes are numbered by the printed parent chain.

# Set 1
# Target: Sal-like protein 4, full length isoform A (SALL4, Homo sapiens, UniProt Q9UJQ4, residues 1-1053)
# Chain of UniProt Q9UJQ4 (whole entry, looked up): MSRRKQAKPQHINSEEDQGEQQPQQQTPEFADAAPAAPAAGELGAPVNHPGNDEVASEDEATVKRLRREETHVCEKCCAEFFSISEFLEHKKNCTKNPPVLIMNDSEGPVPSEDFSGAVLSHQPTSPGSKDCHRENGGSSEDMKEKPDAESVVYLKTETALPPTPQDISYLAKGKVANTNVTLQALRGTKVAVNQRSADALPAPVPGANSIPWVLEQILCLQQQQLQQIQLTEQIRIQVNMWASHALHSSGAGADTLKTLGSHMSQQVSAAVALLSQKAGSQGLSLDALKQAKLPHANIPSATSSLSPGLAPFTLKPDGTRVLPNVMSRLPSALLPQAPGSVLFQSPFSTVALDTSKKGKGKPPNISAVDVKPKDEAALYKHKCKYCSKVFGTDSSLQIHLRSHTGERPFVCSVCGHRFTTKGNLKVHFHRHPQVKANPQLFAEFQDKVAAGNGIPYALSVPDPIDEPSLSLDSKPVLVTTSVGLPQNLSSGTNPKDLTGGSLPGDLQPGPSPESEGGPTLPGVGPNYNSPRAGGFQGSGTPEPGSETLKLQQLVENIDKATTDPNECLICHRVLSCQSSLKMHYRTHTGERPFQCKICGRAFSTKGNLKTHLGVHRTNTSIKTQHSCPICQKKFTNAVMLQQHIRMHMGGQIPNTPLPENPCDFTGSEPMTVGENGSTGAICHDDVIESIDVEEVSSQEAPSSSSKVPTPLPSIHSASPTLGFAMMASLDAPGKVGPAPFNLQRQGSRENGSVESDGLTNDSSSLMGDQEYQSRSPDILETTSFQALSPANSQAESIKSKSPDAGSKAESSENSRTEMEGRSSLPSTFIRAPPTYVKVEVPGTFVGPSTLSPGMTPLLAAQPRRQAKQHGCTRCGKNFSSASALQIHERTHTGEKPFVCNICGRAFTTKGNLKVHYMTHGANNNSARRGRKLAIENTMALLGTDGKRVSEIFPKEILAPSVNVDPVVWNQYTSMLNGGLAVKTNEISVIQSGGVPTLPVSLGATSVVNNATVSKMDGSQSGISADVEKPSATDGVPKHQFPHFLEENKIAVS
# Technique: universal PBM
# Form: double-stranded DNA, one strand shown
# Medium: in vitro
# Concentration: 600 nM
# Setting: 8-mer, flanks averaged, mean of replicates
# Reading: higher = stronger binding
Sequence,E-score
AAATACTA,0.304
CCTCAAGA,0.144
TAATCTGA,0.176
GCTCTACA,-0.0268
ACCACTTG,0.00276
AGCCGAGA,-0.246
GCGTAGCA,-0.111
ACAATCGT,0.21
GTCGCCCA,-0.244
AGGATCAT,0.0952
GATACTTA,0.0935
ACCGAGTG,-0.241
GCTTATCC,-0.0728
GAGAATGA,0.174
TCTATGCA,0.218
AGCGAAGC,-0.243
CTATTTTC,0.23
AGACCTGA,-0.0089

# Set 2
# Target: ABI1, truncated, D143A, DHFR fusion (Arabidopsis thaliana)
# Technique: DHFR PCA, deep sequencing
# Medium: yeast
# Setting: methotrexate growth selection, single substitutions
# With: (+)-ABA 0.11 µM
# Baseline: wild-type fitted maximum
# Reading: higher = stronger binding
# Starting sequence: PYL1, truncated, DHFR fusion (Arabidopsis thaliana); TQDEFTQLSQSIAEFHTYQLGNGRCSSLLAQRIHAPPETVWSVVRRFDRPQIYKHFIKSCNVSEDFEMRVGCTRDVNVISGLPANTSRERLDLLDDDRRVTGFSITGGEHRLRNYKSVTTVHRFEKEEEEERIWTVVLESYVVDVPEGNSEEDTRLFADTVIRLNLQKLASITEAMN; partner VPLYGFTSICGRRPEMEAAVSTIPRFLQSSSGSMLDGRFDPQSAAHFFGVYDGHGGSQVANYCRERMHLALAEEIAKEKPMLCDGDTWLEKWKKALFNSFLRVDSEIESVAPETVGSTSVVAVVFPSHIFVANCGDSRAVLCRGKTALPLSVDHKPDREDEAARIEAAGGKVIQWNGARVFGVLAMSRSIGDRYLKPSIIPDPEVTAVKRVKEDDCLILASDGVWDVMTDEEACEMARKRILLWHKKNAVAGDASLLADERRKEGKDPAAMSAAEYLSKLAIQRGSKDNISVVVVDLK
Substitution,relative binding score
F124Y,31.8%
G148M,-6.55%
G21M,23.7%
T154W,5.36%
H16V,-3%
F157M,6.51%
N177M,7.67%
S140G,2.66%
F103D,-9.98%
T160A,7.02%
V145S,-13.6%
E139K,8.43%
E131F,14.4%
D48P,-6.39%
S27F,-1.94%
E38W,8.65%

# Set 3
# Target: RNA binding protein fox-1 homolog 2, RRM domain, GST-SBP tag (RBFOX2, Homo sapiens, UniProt O43251-10, residues 100-194)
# Technique: RNA Bind-n-Seq
# Form: RNA
# Medium: in vitro
# Concentration: 365 nM
# Setting: natural RNA segment, single round, ends assumed
# Baseline: no-protein control
# Reading: higher = stronger binding
# Shared flanks, not repeated: GGGAGUUCUACAGUCCGACGAUC … UGGAAUUCUCGGGUGCCAA
# Construct (chain): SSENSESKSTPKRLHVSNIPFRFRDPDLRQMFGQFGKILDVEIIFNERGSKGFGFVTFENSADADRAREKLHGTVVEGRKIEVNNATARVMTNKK
Sequence,RBNS enrichment (R)
CUUGUCUUCCUAAAACACUAUUAAGCUUAUUGUACUUUUAAGAAAAAUUGCCUUACGUACAUUCCUUUUUCCUUUUUCUGCCUCUUCCCUCAAUAGUUGCCUUUUAGUGC,0.848
GAACUGGGUCAAGGCACCCUUGAAGACAGAGGCCAGCUCUGCACAGCAGCAGCGCCCCCUGCUCUCCUGUGCCUCAGCCCUUCUUAUGUUCCCUGAUGUCACACCCCACU,0.178
UUGCCAGGAUAAAAAUGUGGCCACCGCUAGAUUUCUCUUACCUACCCGUUGCAACUGGUCCCAGACCAGAAUGGCCUCCUCAGAAGGGGAGGUGCUCUUCAAAUCUCCCU,0.262
AGUGUCUGUAUAUUUGUGAUGCAAUGGUCUUGUAAAGGUUUUUACUGAAAACUAUCAUUAGCCAGCCUUUCUUACUGACAAUAAAUUAUUAAUAAAAUACUUUAGCUUUA,0.587
UAGUGACAAUUCAACUUUUUAUGCUAUGACCAGGGGUGGAUCUAAAUUUUAUGGGGCUGAAAGCUUGAAUUAUUUAGAAAGACUUCUUUAAGAAAAACAAUGUUAAUAUA,1
CAGAUUAUCCCUGGGUUUGGGCUGCAGUCACCUGGAGAAGCUGGUAGGGUAAGGGAGAGGGACCCUGCCGGUGUUCACUGGGGAUUCUUUCUUUUGGUCCUUCCUGGAAU,0.403
GCCCUUCUGCUCCAGCUUGCUGGAUGUUACCUGUCCUCUUCCCUCCACAAGUCUUGGCCCUUAACCUUUAUCUUUCUUCCUGUCCUCUCACCUAGAUUGUAAGCUCCCUG,0.819
CAGGUCUCCUGGGAAAGGGAGAUGUCAGGAUGUUGCUCCAUCCUUUGUCUUGGAACCACCAGUCUAGUCCGUCCUGGCACAGAAGAGGAGUCAAGUAAUGGAGGUCCCAG,0.407
UGGCUCCAGAGCUGCUGUUCCCAUCCACGCCAGUGGCCUCGGUCCCUUCUGUGCCAGGCAUUCUGGUCACUGACCUUGAACUAGGCCUGCAGGCUCUCCUGUCACCCCGC,0.339
AUUCAACAUUUUCAUGACCUGGUUAUAGCCUUUGCUGGUGUUUUUAAAAUAUCUUGACUCAGUGACAAAACCCGAGUCCUUUUUUAAAAAAACAAAAACAAACAACAAAA,0.486
UAAACAUUGUGCCAAGAAACGAUUUGUGGGAUUCAUGUCCCGAAACCAUUAAAUCUAUUGUUUGGAAAGUCUGCAGUCCUGAGGAGGGCUUGCUCACUGGACACCCACAG,0.347
AUUACAAAUAGAUCUAGGAACUGGGUCAUAGUUGGCUGGUGGGACAUUAUAGUUGUAAAGCUCAAGUUAAAAUAAAAAUAAAAGUGAUAGGACUAAGUCACCUAUCCAAG,0.415

# Set 4
# Target: CCND3, cyclin fold, Cln2 fusion (human)
# Technique: yeast growth competition, sequencing
# Medium: yeast
# Setting: weak parent motif
# Baseline: not given
# Reading: higher = stronger binding
# Starting sequence: WEE1 docking peptide (human); HKTFRKLRLFDTP; partner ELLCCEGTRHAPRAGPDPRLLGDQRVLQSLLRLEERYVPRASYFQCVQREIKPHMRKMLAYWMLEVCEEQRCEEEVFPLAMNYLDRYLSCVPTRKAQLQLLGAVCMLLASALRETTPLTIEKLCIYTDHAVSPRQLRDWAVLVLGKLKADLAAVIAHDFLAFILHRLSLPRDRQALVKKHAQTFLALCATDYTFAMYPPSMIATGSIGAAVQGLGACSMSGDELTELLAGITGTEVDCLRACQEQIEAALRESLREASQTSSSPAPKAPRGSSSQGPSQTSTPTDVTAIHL
Substitution,normalised enrichment score
HKTFRHLRLFDTP [K6H],0.0472
HKTFRKLKLFDTP [R8K],0.123
HKTFRKGRLFDTP [L7G],0.208
HKIFRKLRLFDTP [T3I],0.153
HMTFRKLRLFDTP [K2M],0.00559
HKPFRKLRLFDTP [T3P],0.128
HKTFRKLRLNDTP [F10N],0.0277
HKTRRKLRLFDTP [F4R],0.125
HTTFRKLRLFDTP [K2T],0.119
HKTFRKLRLFDPP [T12P],0.0507
HKTWRKLRLFDTP [F4W],0.221
HKTFPKLRLFDTP [R5P],0.0359
HKTFRKLRLFDEP [T12E],0.156
HKTFRKLRLIDTP [F10I],0.149
HRTFRKLRLFDTP [K2R],0.178
HSTFRKLRLFDTP [K2S],0.0343
HKTFRKPRLFDTP [L7P],0.143
HKTFRKLRTFDTP [L9T],0.0727
HKTFRKLRWFDTP [L9W],0.123
HKTFRKLRLFDMP [T12M],0.187
HKTFRFLRLFDTP [K6F],-0.187
HKTFRSLRLFDTP [K6S],0.137
HKTFRKLPLFDTP [R8P],0.0678
HKTFTKLRLFDTP [R5T],0.176
HKTFRKLILFDTP [R8I],0.203

# Set 5
# Target: UBE2V2 UBC core domain (UniProt Q15819)
# Chain of UniProt Q15819 (whole entry, looked up): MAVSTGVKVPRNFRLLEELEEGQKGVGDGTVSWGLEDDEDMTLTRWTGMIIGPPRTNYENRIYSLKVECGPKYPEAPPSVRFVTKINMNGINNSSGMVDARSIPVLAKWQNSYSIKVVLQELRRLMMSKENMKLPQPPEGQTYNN
# Technique: yeast two-hybrid
# Medium: yeast
# Setting: mostly zero background
# Baseline: not given
# Reading: higher = stronger interaction
# B1: RNF166 RING domain (UniProt Q96A37); chain GDSGLEAQYTCPICLEVYHRPVAIGSCGHTFCGECLQPCLQVPSPLCPLCRLPFDPKKVDK
# B2: RNF187 RING domain (UniProt Q5TA31); chain ALPAGPAEAACALCQRAPREPVRADCGHRFCRACVVRFWAEEDGPFPCPECADDCWQRAVEP
# B3: MEX3B RING domain (UniProt Q6ZN04); chain SGLRRKGSRDCSVCFESEVIAALVPCGHNLFCMECANRICEKSEPECPVCHTAVTQAIRIF
# B4: DEF8 RING domain (UniProt Q6ZN54); chain AGRLGCSLTEIHTLFAKHIKLDCERCQAKGFVCELCREGDVLFPFDSHTSVCADCSAVFHRDCYYDNSTTCPKCARLSLRK
# B5: TRIM26 RING domain (UniProt Q12899); chain PLRSLEEEVTCSICLDYLRDPVTIDCGHVFCRSCTTDVRPISGSRPVCPLCKKPFKKENIRP
# B6: MKRN2 RING domain (UniProt Q9H000); chain FAFQASQDKVCSICMEVILEKASASERRFGILSNCNHTYCLSCIRQWRCAKQFENPIIKSCPECRVISEFVIPSV
# B7: RNF122 RING domain (UniProt Q9H9V4); chain AKKLQLYGQTCAVCLEDFKGKDELGVLPCQHAFHRKCLVKWLEVRCVCPMCNKPIASPSEAT
# B8: RNF183 RING domain (UniProt Q96D59); chain EQQGRELEAECPVCWNPFNNTFHTPKMLDCCHSFCVECLAHLSLVTPARRRLLCPLCRQPTVLASGQP
Sequence,lacZ reporter activity
B1 (RNF166 RING domain),0
LGTKLEAKYLCSACRNVLRRPFQAQCGHRYCSFCLASILSSGPQNCAACVHEGIYEEGIS (TRAF2 RING domain (UniProt Q12933)),0
LDAASGHPLVCPLCHGQYERPCLLDCFHDFCTGCLRGRATDGRLSCPLCQHQTLVKGPSG (Rnf207 RING domain (UniProt Q3V3A7)),0
B2 (RNF187 RING domain),0
B3 (MEX3B RING domain),0
B4 (DEF8 RING domain),0
B5 (TRIM26 RING domain),0
YCEMGSTFQLCKICAENDKDVKIEPCGHLMCTSCLTAWQESDGQGCPFCRCEIKGTEPII (CBLB RING domain (UniProt Q13191)),0
B6 (MKRN2 RING domain),0
B7 (RNF122 RING domain),0
FVKTVEDKYKCEKCHLVLCSPKQTECGHRFCESCMAALLSSSSPKCTACQESIVKDKVF (TRAF3 RING domain (UniProt Q13114)),0
MNDVLENELQCIICSEYFIEAVTLNCAHSFCSYCINEWMKRKIECPICRKDIKSKTYSL (RNF8 RING domain (UniProt O76064)),0
QVQSRTKIEECVVCSDKKAAVLFQPCGHMCACENCANLMKKCVQCRAVVERRVPFI (MIB1 RING domain (UniProt Q86YT6)),0
B8 (RNF183 RING domain),0

# A few entries again (set 4):
Substitution,normalised enrichment score
HKTFRKLRLNDTP [F10N],0.0277
HKTRRKLRLFDTP [F4R],0.125
HTTFRKLRLFDTP [K2T],0.119
HKTFRKLRLFDPP [T12P],0.0507
HKTWRKLRLFDTP [F4W],0.221
HKTFPKLRLFDTP [R5P],0.0359
HKTFRKLRLFDEP [T12E],0.156
HKTFRKLRLIDTP [F10I],0.149
HRTFRKLRLFDTP [K2R],0.178
HSTFRKLRLFDTP [K2S],0.0343
HKTFRKPRLFDTP [L7P],0.143
HKTFRKLRTFDTP [L9T],0.0727
